Earlier results that unrelated publications cite.
± marks the error that the study gave.
UniProt P08684, sequence (whole entry, looked up): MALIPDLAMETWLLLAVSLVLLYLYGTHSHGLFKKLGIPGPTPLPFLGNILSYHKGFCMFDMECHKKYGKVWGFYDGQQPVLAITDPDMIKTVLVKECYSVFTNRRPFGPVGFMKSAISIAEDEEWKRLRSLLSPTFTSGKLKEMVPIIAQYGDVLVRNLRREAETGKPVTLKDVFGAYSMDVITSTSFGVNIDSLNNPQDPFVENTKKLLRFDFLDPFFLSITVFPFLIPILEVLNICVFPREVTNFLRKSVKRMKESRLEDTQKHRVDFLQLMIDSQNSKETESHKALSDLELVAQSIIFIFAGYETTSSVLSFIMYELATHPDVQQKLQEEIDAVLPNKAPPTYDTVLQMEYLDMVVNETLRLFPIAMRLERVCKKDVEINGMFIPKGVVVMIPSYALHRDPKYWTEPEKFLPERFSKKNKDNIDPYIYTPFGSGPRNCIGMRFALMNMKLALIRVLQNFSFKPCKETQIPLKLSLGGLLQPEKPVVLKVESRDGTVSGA
UniProt O43570, sequence (whole entry, looked up): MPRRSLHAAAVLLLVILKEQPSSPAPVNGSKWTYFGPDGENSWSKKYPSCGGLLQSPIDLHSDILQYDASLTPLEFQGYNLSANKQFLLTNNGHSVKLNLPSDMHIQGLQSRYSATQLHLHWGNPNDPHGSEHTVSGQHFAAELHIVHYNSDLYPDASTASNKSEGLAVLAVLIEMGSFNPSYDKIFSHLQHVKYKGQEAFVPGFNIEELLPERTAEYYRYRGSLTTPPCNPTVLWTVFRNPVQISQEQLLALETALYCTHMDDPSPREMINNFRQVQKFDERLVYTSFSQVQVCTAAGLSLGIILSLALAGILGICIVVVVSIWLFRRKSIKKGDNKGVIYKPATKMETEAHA

The oral bioavailability of `C=C[C@@H]1C[C@]1(NC(=O)[C@@H]1C[C@@H](Oc2cc(-c3ccccc3)nc3cc(OC)ccc23)CN1C(=O)[C@@H](NC(=O)OC(C)(C)C)C(C)(C)C)C(=O)NS(=O)(=O)C1CC1` is reported as 20% (dog; oral, 3 mg/kg).
The cell-associated fraction of `CN1CCC(C)(C)c2cc3c(-c4ccc(C(=O)N5CCCCC5)s4)c4ccc(=[N+](C)C)cc-4sc3cc21` is reported as 45 ± 1% (ABCB1 (Homo sapiens, UniProt P08183); substrate; concentration not given, with inhibitor).
`CC(C)C1=C(O)C(=O)C2=C(C1=O)[C@H](OC=O)[C@@H](O)[C@H]1C(C)(C)CCC[C@]21C` has a GI50 of 5 to 10 µM (HCT-116).
For `C=CC(=O)N1CCC[C@@H](n2nc(-c3cn(C)c4ccccc34)c3c(N)ncnc32)C1`, the kinact was 0.29 ± 0.02 min⁻¹ (EGFR (Homo sapiens, UniProt P00533, L858R/T790M)).
`O=C1c2ccccc2-c2c1c1ccc([N+](=O)[O-])cc1c(=O)n2C[C@H](O)CO` has a GI50 of 0.04 µM (DU-145; cell growth; prostate cancer).
Under “integrated Qy/B absorption ratio”, `COCCOCCOCCOCCC(=O)NCc1cc(CNC(=O)CCOCCOCCOCCOC)cc(-c2cc3cc4nc(c(OC)c5[nH]c(cc6nc(cc2[nH]3)CC6(C)C)cc5-c2cc(CNC(=O)CCOCCOCCOCCOC)cc(CNC(=O)CCOCCOCCOCCOC)c2)CC4(C)C)c1` is recorded as 0.53 (DMF; room temperature).
`CCCC(=O)O[C@@H]1[C@@H](OC(C)=O)C2=C(C(=O)C(O)=C(C(C)C)C2=O)[C@@]2(C)CCCC(C)(C)[C@H]12` has a GI50 of no more than 5 µM (MOLT-3).
The kinact of `C=CC(=O)N1CCC[C@@H](n2nc(-c3cccc4ccccc34)c3c(N)ncnc32)C1` is reported as 0.25 ± 0.06 min⁻¹ (EGFR (Homo sapiens, UniProt P00533, L858R)).
Under “absorbed dose coefficient”, `CN1C(=O)[C@@H](Cc2ccc(O)cc2)NC(=O)CNC(=O)[C@H](Cc2ccc3ccccc3c2)NC(=O)[C@H](CCCNC(=N)N)NC(=O)[C@H]1CCCNC(=O)c1ccc(CNC(=O)CN2CCN(CC(=O)O)CCN(CC(=O)O)CCN(CC(=O)O)CC2)cc1` [gallium-68 labelled] is recorded as 0.0538 mGy/MBq (PET dosimetry; human patients, spleen).
The Cmax of `CN1CCN(c2cc(-c3ccccc3CO)c(N(C)C(=O)C(C)(C)c3cc(C(F)(F)F)cc(C(F)(F)F)c3)cn2)CC1` is reported as 81.8 ng/mL (healthy volunteers, plasma; oral, dose not given, netupitant-palonosetron, fasted).
`CC(=O)O[C@H]1C2=C(C(=O)C(O)=C(C(C)C)C2=O)[C@@]2(C)CCCC(C)(C)[C@@H]2[C@@H]1O` has a GI50 of 10 to 30 µM (MEL1).
For `Cc1cc(S(N)(=O)=O)c(Cl)cc1NC1CCCCC1`, the Kd was 420 nM (CA12 (Homo sapiens, UniProt O43570); fluorescent thermal shift; pH 7.0, 37 °C, observed).
The GI50 of `CCC(=O)OC1=C(C(C)C)C(=O)C2=C(C1=O)[C@@]1(C)CCCC(C)(C)[C@@H]1[C@H](OC(=O)CC)[C@H]2OC(C)=O` is reported as no more than 5 µM (HL-60; cell growth).
Under “acetylated α-tubulin level”, `CNCCCOc1cc(F)c(-c2c(Cl)nc3ncnn3c2N[C@@H](C)C(F)(F)F)c(F)c1` is recorded as 1.06 ± 0.38 (HEK293; 10 µM, 4 h, unit not given; relative to: vehicle (DMSO)).
With `Cc1ccccc1-c1cc(N2CCNCC2)ncc1N(C)C(=O)C(C)(C)c1cc(C(F)(F)F)cc(C(F)(F)F)c1` the half-life was 73.8 h (healthy volunteers, plasma; oral, 450 mg, single dose, together with: palonosetron 0.75 mg).
With `CC(=O)O[C@H]1C2=C(C(=O)C(OC(=O)c3ccc([N+](=O)[O-])cc3)=C(C(C)C)C2=O)[C@@]2(C)CCCC(C)(C)[C@@H]2[C@@H]1O` the GI50 was 5 to 10 µM (HL-60; cell growth).
For `CC(=O)N1CCC(NC(=O)NC23CC4CC(C)(CC(C2)c2ccccc24)C3)CC1`, the inhibition was 19 ± 3% (Cytochrome P450 3A4 (CYP3A4, Homo sapiens, UniProt P08684); enzyme activity, inhibitor; 10 µM, together with: BFC substrate).
For `O=C1c2ccccc2-c2c1c1ccc([N+](=O)[O-])cc1c(=O)n2C[C@H](O)[C@@H](O)[C@H](O)[C@H](O)CO`, the GI50 was 7.35 µM (HOP-62; cell growth; lung cancer).
`COc1ccc(Nc2nccc(-c3c[nH]nc3-c3cccnc3)n2)cc1` has an inhibition of 30% (CYP2C19 (Homo sapiens, UniProt P33261); 10 µM).
`Cc1ccccc1-c1cc(N2CC[N+](C)([O-])CC2)ncc1N(C)C(=O)C(C)(C)c1cc(C(F)(F)F)cc(C(F)(F)F)c1` gave a Tmax of 5.57 h (healthy volunteers, plasma; oral, dose not given, netupitant-palonosetron, fed).
`CCC1=C(O)c2c(oc(-c3ccc4ccccc4c3)cc2=O)C(CC)(CC)C1=O` gave an IC50 of 1420 nM (MCF7; cell growth, SRB).
